Published values pooled from the literature.
Lines come from different studies, so protocols differ. “And” joins repeats or separate records; there may be more than shown. Numbers after ± are the reported error.

`Cc1ccc2nc(C)c(C(=O)NCc3ccc(C(F)(F)F)cc3)n2c1` has a CLint of 141 mL/min/g protein (marmoset liver microsomes).
`N[C@]1(c2ccccc2Cl)CCC[C@H](O)C1=O` — result for “volume of distribution at steady state”: 6.16 ± 0.476 L/kg (Wistar rat; intravenous, 20 mg/kg).
`Nc1nc(SCCN2CCCC2)nc2sc3c(c12)CCC(c1ccccc1)C3` (stereo not shown) gave a metabolized compound of 38 ± 16% (mouse liver microsomes; 30 min).
The MRT(0-t) of `COc1ccc(-n2cc(C(=O)N3C[C@]4(OC(=O)c5ccccc5NC(C)=O)CC[C@H](OC)[C@@]56[C@@H]4C[C@@H]([C@@H]35)[C@@]3(O)C[C@H](OC)[C@H]4C[C@@H]6[C@]3(O)[C@H]4OC)nn2)cc1` is reported as 19.2 min (Sprague-Dawley rat, plasma; intravenous, 2 mg/kg).
With `Cc1cc(C)c2cc(C(=O)NC3CCCCCCC3)[nH]c2c1` the AUC(0-t) was 31.4 mg·h/kg (mouse; oral, 100 mg/kg).
`O=C1CC(=O)N(c2ccccc2)c2cc(Cl)ccc2N1` gave a Cmax of 4.1 µM (C57BL/6 mice, whole blood; oral, 3 mg/kg).
`Nc1nc(SCCCN2CCCCC2)nc2sc3c(c12)CCC(c1ccccc1)C3` (stereo not shown) has a metabolized compound of 22% and < 25% (human liver microsomes; 30 min).
`CN(C)CC1CCCCC1(O)c1cccc(O)c1` (stereo not shown) gave an efflux ratio of 0.9 (Caco-2; 1 µM, 3 h, pH 7.4).
With `CCC1CCc2c(sc3nc(SCCCN4CCCCC4)nc(N)c23)C1` (racemic) the metabolized compound was 52% (mouse liver microsomes; 30 min).
`CCCCCc1cc(OC(=O)C(NC(=O)C(N)C(C)C)C(C)C)c2c(c1)OC(C)(C)C1CCC(C)=CC21` (stereo not shown): transcorneal permeation “not detected” (rabbit cornea in vitro; RMβCD, Cremophor, polysorbate or tyloxapol formulations).

Excerpt of the above:
`Nc1nc(SCCCN2CCCCC2)nc2sc3c(c12)CCC(c1ccccc1)C3` (stereo not shown) has a metabolized compound of 22% and < 25% (human liver microsomes; 30 min).
`O=C1CC(=O)N(c2ccccc2)c2cc(Cl)ccc2N1` gave a Cmax of 4.1 µM (C57BL/6 mice, whole blood; oral, 3 mg/kg).
